Measured values from different studies.
Protocols differ between the studies behind these lines. ± marks the error that the study gave.
rep main protease: Replicase polyprotein 1ab, main protease (rep, Severe acute respiratory syndrome coronavirus 2, UniProt P0DTD1)
rep nsp14 with nsp10: Replicase polyprotein 1ab, nsp14 with nsp10 (rep, Severe acute respiratory syndrome coronavirus 2, UniProt P0DTD1)
rep nsp3 Mac1 domain: Replicase polyprotein 1ab, nsp3 Mac1 domain (rep, Severe acute respiratory syndrome coronavirus 2, UniProt P0DTD1)
rep nsp14: Replicase polyprotein 1ab, nsp14 (rep, Severe acute respiratory syndrome coronavirus 2, UniProt P0DTD1)

| SMILES | tested on | test | system | conditions | IC50 |
| --- | --- | --- | --- | --- | --- |
| CS(=O)(=O)CCCNC(=O)C[C@H](Cc1ccc(F)cc1)NC(=O)[C@@H](Cc1ccc(Cl)cc1Cl)NC(=O)[C@H](N)Cc1ccccc1C#N | rep main protease | enzyme activity, inhibitor | – | – | 100 nM |
| O=C(O)C(O)=CC(=O)c1cc(Oc2ccccc2)cc(Oc2ccccc2)c1 | rep nsp14 with nsp10 | exonuclease activity, inhibitor | – | – | > 50000 nM |
| O=C(Oc1cccc2cccnc12)c1cccs1 | rep nsp3 Mac1 domain | enzyme activity, inhibitor, fluorescence polarization | – | – | > 300000 nM |
| CN(C)CCCCNC(=O)C[C@H](Cc1ccc(F)cc1)NC(=O)[C@@H](Cc1ccc(Cl)cc1Cl)NC(=O)[C@@H](O)Cc1ccccc1C#N | rep main protease | enzyme activity, inhibitor | – | – | 600 nM |
| O=C(O)C(O)=CC(=O)c1ccc2cc(O)c(O)cc2c1 | rep nsp14 with nsp10 | exonuclease activity, inhibitor | – | – | 1860 ± 160 nM |
| CC1=C[C@@H](CN2CCN(c3ncccn3)CC2)[C@H](C(C)C)C[C@H]1Cc1nnc(Cc2c[nH]c3ccccc23)o1 | Replicase polyprotein 1ab, nsp4-nsp5-nsp6 precursor (rep, Severe acute respiratory syndrome coronavirus 2, UniProt P0DTD1) | reporter gene, inhibitor, Rev-Nluc cell | – | – | > 50000 nM |
| CN(C)CCCCNC(=O)C[C@H](Cc1ccc(F)cc1)NC(=O)[C@@H](Cc1ccc(Cl)cc1Cl)NC(=O)[C@@H](Cc1ccccc1C#N)NS(C)(=O)=O | rep main protease | enzyme activity, inhibitor | – | – | 500 nM |
| O=C(O)c1cc(OC2OC(CO)C(O)C(O)C2O)c2ccccc2c1O (centres unmarked) | rep nsp3 Mac1 domain | enzyme activity, inhibitor, AlphaScreen | – | – | 36700 ± 3700 nM |
| Oc1nc(/C=C/c2ccc(Cl)cc2Cl)cc(C(F)(F)F)n1 | Replicase polyprotein 1ab, nsp16 with nsp10 (rep, Severe acute respiratory syndrome coronavirus 2, UniProt P0DTD1) | enzyme activity | – | 2 h preincubation, no DTT | 9000 ± 1000 nM |
| O=C(NCc1ccc(F)cc1)C1C(=O)N(O)C(=O)c2cc([N+](=O)[O-])ccc21 (centres unmarked) | rep nsp14 with nsp10 | exonuclease activity, inhibitor | – | – | 14700 ± 4600 nM |
| Cc1c(S(=O)(=O)N2CCC(C)CC2)cc(C(=O)NC2CCCC2)n1C | rep nsp14 | enzyme activity, inhibitor | – | – | 1400 nM |
| CC(C)(C)c1ccc(-c2cn(-c3ccc(C(=O)C=C(O)C(=O)O)cc3)nn2)cc1 | rep nsp14 with nsp10 | exonuclease activity, inhibitor | – | – | > 50000 nM |
| COc1cccc(C(=O)N(CCC(=O)N2CCNCC2)Cc2cccc(Cl)c2)c1 | rep nsp3 Mac1 domain | enzyme activity, inhibitor, fluorescence polarization | – | – | > 300000 nM |
| O=C(O)C(O)=CC(=O)C1(Cc2ccc(Cl)cc2)CCN(Cc2ccc3ccccc3c2)CC1 | rep nsp14 with nsp10 | exonuclease activity, inhibitor | – | – | > 50000 nM |
| N#Cc1ccccc1C[C@@H](N)C(=O)N[C@H](Cc1ccc(Cl)cc1Cl)C(=O)N[C@H](CC(=O)NCCCCC(=O)O)Cc1ccc(F)cc1 | rep main protease | enzyme activity, inhibitor | – | – | 200 nM |
| O=C(O)C(O)=CC(=O)c1ccc(O)c(O)c1 | rep nsp14 with nsp10 | exonuclease activity, inhibitor | – | – | 7100 ± 500 nM |
| CN(C)CCCCNC(=O)C[C@H](Cc1ccc(F)cc1)NC(=O)[C@@H](Cc1ccc(Cl)cc1Cl)NC(=O)[C@H](Cc1ccccc1C#N)NC(=O)OC(C)(C)C | rep main protease | enzyme activity, inhibitor | – | – | > 10000 nM |
| COc1cccc(CNC(=O)c2cc(S(=O)(=O)N3CCC(C)CC3)c(C)n2C)c1 | rep nsp14 | enzyme activity, inhibitor | – | – | 200 nM |
| N#Cc1ccccc1C[C@@H](N)C(=O)N[C@H](Cc1ccc(Cl)cc1Cl)C(=O)N[C@H](CC(=O)NCCCCN1CCOCC1)Cc1ccc(F)cc1 | rep main protease | enzyme activity, inhibitor | – | – | 70 nM |
| CC[C@H](C)[C@H](NC(=O)[C@H](C)NC(=O)[C@H](CCC(=O)O)NC(=O)[C@H](CCC(=O)O)NC(=O)[C@H](CC(C)C)NC(=O)[C@H](CCCCN)NC(=O)[C@H](CCCCN)NC(=O)[C@H](CCSC)NC(=O)[C@H](CCC(=O)O)NC(=O)[C@H](Cc1ccc(O)cc1)NC(=O)[C@H](CCC(=O)O)NC(=O)[C@H](CC(C)C)NC(=O)[C@H](CC(=O)O)NC(=O)[C@H](CC(C)C)NC(=O)[C@H](Cc1ccccc1)NC(=O)[C@H](Cc1ccccc1)NC(=O)[C@@H](NC(=O)[C@H](CC(N)=O)NC(=O)[C@@H](NC(=O)[C@H](CCC(N)=O)NC(=O)[C@H](CC(=O)O)NC(=O)[C@H](CC(C)C)NC(=O)[C@@H](N)CO)[C@@H](C)CC)C(C)C)C(=O)N[C@@H](CCCCN)C(=O)N[C@@H](CCCCN)C(=O)N[C@@H](CC(C)C)C(=O)N[C@@H](CCC(=O)O)C(=O)N[C@@H](CCC(=O)O)C(=O)N[C@H](C(=O)N[C@@H](Cc1ccc(O)cc1)C(=O)N[C@H](C(=O)N[C@@H](CC(=O)O)C(=O)N[C@@H](CC(C)C)C(=O)N[C@@H](CCCCN)C(=O)N[C@@H](CCC(=O)O)C(=O)N[C@@H](CC(C)C)C(=O)O)[C@@H](C)CC)[C@@H](C)O | SARS-CoV-2 EG.5.1 pseudovirus | pseudovirus infection, inhibitor, luciferase | Caco-2 | 24 h, dual mutations | 230 nM |

Repeated from above:
| SMILES | tested on | test | system | conditions | IC50 |
| --- | --- | --- | --- | --- | --- |
| CC1=C[C@@H](CN2CCN(c3ncccn3)CC2)[C@H](C(C)C)C[C@H]1Cc1nnc(Cc2c[nH]c3ccccc23)o1 | Replicase polyprotein 1ab, nsp4-nsp5-nsp6 precursor (rep, Severe acute respiratory syndrome coronavirus 2, UniProt P0DTD1) | reporter gene, inhibitor, Rev-Nluc cell | – | – | > 50000 nM |
| CN(C)CCCCNC(=O)C[C@H](Cc1ccc(F)cc1)NC(=O)[C@@H](Cc1ccc(Cl)cc1Cl)NC(=O)[C@@H](Cc1ccccc1C#N)NS(C)(=O)=O | rep main protease | enzyme activity, inhibitor | – | – | 500 nM |
